Assay results collected from several papers.
Parts stem from different laboratories: compare values within a part only.

Block 1
Target: POU domain, class 5, transcription factor 1, POU domain (Pou5f1, Mus musculus, UniProt P20263, residues 131-289)
UniProt P20263, sequence (131-289, looked up): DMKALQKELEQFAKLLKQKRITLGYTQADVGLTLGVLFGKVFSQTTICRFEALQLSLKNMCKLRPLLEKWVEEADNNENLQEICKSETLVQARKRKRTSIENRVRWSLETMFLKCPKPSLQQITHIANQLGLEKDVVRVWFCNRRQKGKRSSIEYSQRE
Method: Spec-seq
Molecule type: double-stranded DNA, one strand shown
Medium: in vitro
Concentration: not given
Setting: whole probe, mean of replicates
Baseline: not given
Reading: lower = stronger binding
All sequences stand within: GAGTCGTCTCGTCAGCAC … CCGTAGAGCACTCAGGTC
Oligonucleotide	relative binding energy [ln ratio]
ATGCCTTA	0.339
ATTACAAT	-0.429
CATTTAAT	0.452
CGAATAAT	-0.632
ATGCGGTT	0.507
ATGCTAAA	-1.14
AACTTAAT	0.364
CAGCTAAT	0.84
CTACTAAT	0.535
ATTGGTAT	0.331
TAGTTAAT	0.249
ATGCTCGA	0.656
ATGCAAGT	-0.219
ATGCGGTG	0.755
AAGCTAAT	0.272
ATTCGGAT	0.27
TCCGTAAT	0.828
ATGCCCAT	0.673
ATGCCCTT	0.68

Block 2
Target: RNA binding protein fox-1 homolog 2, RRM domain, GST-SBP tag (RBFOX2, Homo sapiens, UniProt O43251-10, residues 100-194)
Method: RNA Bind-n-Seq
Molecule type: RNA
Medium: in vitro
Concentration: 365 nM
Setting: natural RNA segment, single round, ends assumed
Baseline: no-protein control
Reading: higher = stronger binding
All sequences stand within: GGGAGUUCUACAGUCCGACGAUC … UGGAAUUCUCGGGUGCCAA
Construct (chain): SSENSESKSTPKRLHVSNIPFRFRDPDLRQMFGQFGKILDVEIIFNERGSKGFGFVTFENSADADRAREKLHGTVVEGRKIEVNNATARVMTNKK
Oligonucleotide	RBNS enrichment (R)
CUCUGAGCACAUCCAGAAGUGAUAACCUGACCCUCCACACCAAAGACACCCUGGUGCUGCUGCUGGUGAGACUGGUGUCCAAGGCAGGGCCCAGCAGAAACUGCAGCCUG	0.358
UGAUUUCAUUUAGGACAAAUGUGCAUGUUCUGAAUGAAAUGAGAGAAAUGCUGUAUUUAUUGAUAACAUUGGCUAGGAGACUGAUGGACUGGCACACUUUCCUGUUUUAA	0.617
AUGUUAUAAAAAUUGUCAUUGAAUUCUUUAAUGGUGUCCAACCACGAUGAUAUUGCUGAUCAAAAGUUAUGAACAGAAAUAAGAGUGACAGCUAGCUAAGUCAAGCUUUU	0.301
UCCCACCUCCCUCGCUCGCUAGUCUCGGCCGGACUUGGAAGACACUGAGAAUGUCCCCCCCAAUGGCCUCCGCCAUCCAGAACUUGGUACAUAUUCUGGUGGCUCCCUGC	0.931
GGCUUCCUUUCAGUACAGUAAAAGUCCCUCCCUAUGGGCCAGACUUGAUAAUAGUAGGUGAAGGUUCUGGAGGCCUUUACCAGGACAGAGCUAGAAUCGAGCCAGUAAAC	0.315
CCUGGUGUGCUUUGAAGGCAGAUGAGCUGGUGAUUUCAUUGGGCACUUGGCCCUUUUCCAAGCACAUCUGGGCAGAUAUAGACACAGGAAGAUAGGGUCCAACAGCGAGA	0.466
UCCUGUCCUUCCUUGAAAUUGCUGAUUGUUCUGCUCCCUCUACAGAUAUUUAUAUCAAUUCCUACAGCUUUCCCCUGCCAUCCCUGAACUCUUUCUAGCCCUUUUAGAUU	1.05
UCCCUUAGCUAUAUGAAUUUUGGCAUGUUUCAGAGAGAUCAGUAAAUAAAAUAUUAGAUAAAAUAUAUAUUGUUUGUGUUGAAGUUUUUAACUUUUCAGAAAUUGUUGAU	2.3

Block 3
Target: Ras GTPase-activating protein-binding protein 1, C-terminal RGG region (G3BP1, Homo sapiens, UniProt Q13283)
UniProt Q13283, sequence (whole entry, looked up): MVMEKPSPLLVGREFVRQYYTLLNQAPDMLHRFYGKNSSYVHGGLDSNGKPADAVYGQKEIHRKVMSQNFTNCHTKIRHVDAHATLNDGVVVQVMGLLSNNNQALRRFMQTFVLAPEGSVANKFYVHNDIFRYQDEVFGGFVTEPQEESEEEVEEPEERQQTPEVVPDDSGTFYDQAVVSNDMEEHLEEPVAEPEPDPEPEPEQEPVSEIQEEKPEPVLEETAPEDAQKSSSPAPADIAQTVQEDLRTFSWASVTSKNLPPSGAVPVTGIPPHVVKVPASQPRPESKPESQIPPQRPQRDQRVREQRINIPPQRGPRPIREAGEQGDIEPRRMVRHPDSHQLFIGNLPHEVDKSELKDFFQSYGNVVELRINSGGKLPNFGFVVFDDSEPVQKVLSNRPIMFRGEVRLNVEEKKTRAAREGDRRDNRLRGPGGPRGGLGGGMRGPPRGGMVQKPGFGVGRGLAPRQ
Method: RNA Bind-n-Seq
Molecule type: RNA
Medium: in vitro
Concentration: 1 µM
Setting: whole 134-nt RNA, ends assumed
Together with: 150 mM KCl
Baseline: input library
Reading: higher = stronger binding
All sequences stand within: GGGAGUUCUACAGUCCGACGAUC … UGGAAUUCUCGGGUGUCAAGG
Oligonucleotide	log2 enrichment
AGUCCUGUGCUACACAUCGUAUGUACCGAAUCGGAAAAAGGGAAAAAGGAAAAAGGGGAAAGUAUUAUGUUACGCCGUUCGGAUCUGCAC	-1.68
CAAGUCCUGUGCUACACAUCGUAUGUACCGAAUCGGGAGGGAGGGAAAAAAAGGGAAAGUAUUAUGUUACGCCGUUCGGAUCUGCACUUC	0.36
CAAGUCCUGUGCUACACAUCGUAUGUACCGAAUCGGAAAGGGGAAAGGGGAAAGGAAAGUAUUAUGUUACGCCGUUCGGAUCUGCACUUC	-1.12
UAGUGAUGGUCCUAAAUAGCAUGAGUGUCAGCUGGAGCGCCCGGAUCCAGAUUUUCUUAACCUUUUGCAAGCUCACAGCAAUUCUGAUAA	-1.09
UGGCCCUGGUGGCAUGCGGGGAGGAAGAGGUGGCCUCAUCGAUCGUGGUGGUCCCGGUGGAAUGUUCAGAGGUGGCCGUGGUGGAGACAG	1.4
UGCAGAUUGAUGAGUAUGAUCACUCCAAGCCCAUCCAGGGGCAACAGAAGAAGCCCUUUGAGGUGCACUGGAGGAAGCACACCCUGUCCU	-2.08
AAGUCCUGUGCUACACAUCGUAUGUACCGAAUCAAACCCAAAUUUAAAUUUUUAAAAAAGUAUUAUGUUACGCCGUUCGGAUCUGCACUU	-0.836
UUUCUCCAUUGCAGGAAGUUGGCAGUAUCAUCGGAAAGGUAAGACAAUUUCACUUCAACUUCAAUUACCAUUUAGUAAUUCUGGAUUGAA	-1.71
CAAGUCCUGUGCUACACAUCGUAUGUACCGAAUCGGGCCCGGGGCCCGGGGCCCGGAAAGUAUUAUGUUACGCCGUUCGGAUCUGCACUU	-2.07

Block 4
Target: Sal-like protein 4, full length isoform B (SALL4, Homo sapiens, UniProt Q9UJQ4-2, residues 1-616)
Method: universal PBM
Molecule type: double-stranded DNA, one strand shown
Medium: in vitro
Concentration: not given
Setting: 8-mer, flanks averaged, mean of replicates
Reading: higher = stronger binding
Target sequence (chain): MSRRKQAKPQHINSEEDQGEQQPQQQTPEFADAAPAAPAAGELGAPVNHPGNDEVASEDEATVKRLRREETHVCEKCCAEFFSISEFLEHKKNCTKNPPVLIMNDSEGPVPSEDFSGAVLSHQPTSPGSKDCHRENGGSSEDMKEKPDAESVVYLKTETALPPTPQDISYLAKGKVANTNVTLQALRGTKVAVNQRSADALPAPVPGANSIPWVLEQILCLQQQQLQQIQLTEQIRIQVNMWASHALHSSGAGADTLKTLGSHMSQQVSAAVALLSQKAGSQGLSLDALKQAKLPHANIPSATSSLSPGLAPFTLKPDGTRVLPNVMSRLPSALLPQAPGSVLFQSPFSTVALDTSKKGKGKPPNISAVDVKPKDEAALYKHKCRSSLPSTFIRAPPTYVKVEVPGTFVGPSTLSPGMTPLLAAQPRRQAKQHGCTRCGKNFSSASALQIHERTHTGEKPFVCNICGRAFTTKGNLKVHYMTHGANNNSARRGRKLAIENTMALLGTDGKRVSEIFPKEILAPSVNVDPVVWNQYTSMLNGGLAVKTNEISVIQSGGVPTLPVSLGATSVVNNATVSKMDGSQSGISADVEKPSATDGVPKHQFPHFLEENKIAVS
Oligonucleotide	E-score
AATAGGCC	-0.0225
CGCTAGGC	-0.289
CTAATCTC	0.0645
CGGGCTGC	-0.292
CAACATGC	0.0615
CACACGCA	-0.151
TGACGTCA	0.212
CTTGGCTA	-0.0487
ATTACCTG	0.208
ACGCGGAT	-0.129
AATCTCAC	-0.0049
CTATTAAC	0.231
CTGCCTCC	-0.196
GATCTAGA	0.0773
ATGAGCAA	0.139
GACTGTAA	0.0456

A few entries again (block 1):
Oligonucleotide	relative binding energy [ln ratio]
ATGCCCTT	0.68
ATGCGGTG	0.755
AAGCTAAT	0.272
